# Results of several laboratories.
# Lines come from different studies, so protocols differ.
# B1: human RBBP7; sequence looked up; chain ASKEMFEDTVEERVINEEYKIWKKNTPFLYDLVMTHALQWPSLTVQWLPEVTKPEGKDYALHWLVLGTHTSDEQNHLVVARVHIPNDDAQFDASHCDSDKGEFGGFGSVTGKIECEIKINHEGEVNRARYMPQNPHIIATKTPSSDVLVFDYTKHPAKPDPSGECNPDLRLRGHQKEGYGLSWNSNLSGHLLSASDDHTVCLWDINAGPKEGKIVDAKAIFTGHSAVVEDVAWHLLHESLFGSVADDQKLMIWDTRSNTTSKPSHLVDAHTAEVNCLSFNPYSEFILATGSADKTVALWDLRNLKLKLHTFESHKDEIFQVHWSPHNETILASSGTDRRLNVWDLSKIGEEQSAEDAEDGPPELLFIHGGHTAKISDFSWNPNEPWVICSVSEDNIMQIWQMAENIYNDEESDVTTSELEGQGS
Substance,tested on,assay,test system,setting,how to read,quantity,value
polymyxin B sulfate,Pseudomonas aeruginosa,broth microdilution,PAO1,,,MIC,0.125 µg/mL
gentamicin sulfate,Pseudomonas aeruginosa,,"ATCC BAA-2108, resistant","18 h, 37 °C, dark",,MIC,8 µM
colistin,Pseudomonas aeruginosa,broth microdilution,clinical isolate RKI-No_481/15,,,MIC,1 µg/mL
cyclophilin B (human),CYB5R4 knockout human cells,"PP4 interaction, 3xFLAG-PP4C IP-MS",,concentration not given,relative to: CYB5R4 KO over parental,log2 fold change,-3.15
colistin,Pseudomonas aeruginosa,,ATCC 27853,,,MIC,0.5 µg/mL
polymyxin B,Pseudomonas aeruginosa,broth microdilution,PAO1,,,MIC,0.125 µg/mL
colistin,Pseudomonas aeruginosa,broth microdilution,ATCC 9027,18 h,,MIC,1 µM
B1 (human RBBP7),CYB5R4 knockout human cells,"PP4 interaction, 3xFLAG-PP4C IP-MS",,concentration not given,relative to: CYB5R4 KO over parental,log2 fold change,-1.17
colistin sulfate,Pseudomonas aeruginosa,,DSM 50071,,,MIC,0.5 µM
polymyxin B,Pseudomonas aeruginosa,broth microdilution,"PA14, Mueller-Hinton broth","24 h, 37 °C",,MIC,0.5 µg/mL
polymyxin B acetate,Pseudomonas aeruginosa,broth microdilution,PAO1,,,MIC,0.125 µg/mL
colistin,Pseudomonas aeruginosa,,PA1072 PER-producing isolate,,,MIC,2 µg/mL

# For quick reference, copied from above:
Substance,tested on,assay,test system,setting,how to read,quantity,value
colistin,Pseudomonas aeruginosa,broth microdilution,ATCC 9027,18 h,,MIC,1 µM
